Experimental data collected from several papers.
A part holds a random share of what one study measured. Changes are numbered by the printed parent chain.

Study 1 — technique: protein-binding microarray; molecule type: double-stranded DNA, one strand shown; medium: in vitro; concentration: not given; reading: higher = stronger binding; quantity: E-score
Target: Protein max, full length (MAX, Homo sapiens, UniProt P61244-2, residues 1-151)
Notes: k-mer, scored over probes, only values ≥0.25
AAGCGTGG: 0.444
CATGGGGC: 0.369
ACGAGGTC: 0.306
ACACATTG: 0.334
CATGCCAC: 0.4
CACCATGA: 0.266
CGCGTGGC: 0.468
CGGTCACG: 0.343

Study 2 — technique: protein-binding microarray; molecule type: double-stranded DNA, one strand shown; medium: in vitro; concentration: 0.8 µM; notes: whole 60-bp probe, no competitor; reading: higher = stronger binding; quantity: fluorescence intensity; constant ends, left off below: … GTCTTGATTCGCTTGACGCTGCTG
Target: Centromere-binding protein 1, full length, N-terminal tag (CBF1, Saccharomyces cerevisiae, UniProt P17106, residues 1-351)
UniProt P17106, sequence (whole entry, looked up): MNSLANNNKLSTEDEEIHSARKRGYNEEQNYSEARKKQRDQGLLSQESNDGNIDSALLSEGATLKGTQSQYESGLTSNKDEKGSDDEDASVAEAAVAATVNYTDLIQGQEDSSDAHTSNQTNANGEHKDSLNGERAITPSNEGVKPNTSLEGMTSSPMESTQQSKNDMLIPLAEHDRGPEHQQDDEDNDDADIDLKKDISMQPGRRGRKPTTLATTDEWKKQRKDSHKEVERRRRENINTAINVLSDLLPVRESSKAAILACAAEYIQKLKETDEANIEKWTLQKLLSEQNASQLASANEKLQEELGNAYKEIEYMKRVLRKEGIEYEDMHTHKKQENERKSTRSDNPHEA
GAAGGGGCAAGACACCATCTGATGGGTTGAAAATAG: 556 a.u.
CTAGAAGAACTTTTCCTGATGCTTGTATCAGAATTC: 488 a.u.
TGTACGAAGCTATGTTTCGTGACTATAGTAGTTAGG: 536 a.u.
GAATTGTCATGTGAAGGCGTGATAGGTATGTCGTAG: 1310 a.u.
CTAAATGGTATATATGATGTTACAGGAAAACTTTTC: 507 a.u.
GAACCACATCGGTAAGTGATGACCAGATAATGGTAG: 590 a.u.
GAACAGTCATACAAGCACGAGGAAAAAGAGGACTAG: 659 a.u.
GAAAATGTTTGCGGTCACCCGCGCTGAAAATTTTAG: 582 a.u.

Study 3 — technique: protein binding microarray; molecule type: double-stranded DNA, one strand shown; medium: in vitro; concentration: not given; baseline: not given; reading: higher = stronger binding; quantity: E-score
Target: Histone acetyltransferase KAT6A, winged helix 2, GST fusion (KAT6A, Homo sapiens, UniProt Q92794, residues 85-181)
Notes: 8-mer, flanks averaged, mean of 2 arrays, mostly near background
Residues (chain): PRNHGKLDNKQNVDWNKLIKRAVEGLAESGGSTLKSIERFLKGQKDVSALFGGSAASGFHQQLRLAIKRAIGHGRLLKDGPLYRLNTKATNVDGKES
GCAACCAA: 0.127
TAAGTGCA: -0.115
CCGACACG: 0.0316
TATGGAAA: 0.00443
GTCTAAAA: -0.108
CGTTTTGC: 0.111
AGCGATCA: -0.125
GAGCTCGA: 0.177

Single results of other studies
Starting sequence: PafA, mature enzyme, eGFP fusion (Elizabethkingia meningoseptica, UniProt Q9KJX5); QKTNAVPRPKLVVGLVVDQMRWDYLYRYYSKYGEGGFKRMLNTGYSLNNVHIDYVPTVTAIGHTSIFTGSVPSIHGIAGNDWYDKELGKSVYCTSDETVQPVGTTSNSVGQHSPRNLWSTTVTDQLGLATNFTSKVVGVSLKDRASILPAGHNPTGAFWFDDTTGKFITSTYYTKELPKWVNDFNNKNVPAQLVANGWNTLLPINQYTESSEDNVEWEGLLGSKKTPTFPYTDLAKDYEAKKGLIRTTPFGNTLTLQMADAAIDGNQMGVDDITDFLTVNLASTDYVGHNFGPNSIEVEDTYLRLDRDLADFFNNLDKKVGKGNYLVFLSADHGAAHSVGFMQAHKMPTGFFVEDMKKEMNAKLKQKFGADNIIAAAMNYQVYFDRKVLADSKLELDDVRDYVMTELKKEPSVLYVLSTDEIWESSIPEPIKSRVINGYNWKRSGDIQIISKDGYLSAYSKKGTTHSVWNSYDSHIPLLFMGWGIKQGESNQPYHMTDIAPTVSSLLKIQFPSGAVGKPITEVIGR
V298A
oxyanion analog dissociation constant (vanadate, free oxyanion; microfluidic competitive inhibition; in vitro, cell-free expressed; not given, derived from inhibition constants, unchanged parent 676 nM; lower = stronger binding): 795 nM

A few entries again (study 1):
CATGGGGC: 0.369
CGCGTGGC: 0.468
CGGTCACG: 0.343
